# Measurements from different studies.
# Each line is one published result; not all experiments were run side by side.
Compound,organism,assay,test system,conditions,MIC
Cc1c2ccncc2c(C)c2c1[nH]c1ccccc12,Candidozyma auris,inhibitor,276,24 h,128 µg/mL
CC1(C)SC2C(NC(=O)C(NC(=O)C3=C(O)C(Cc4ccco4)NC3=O)c3ccccc3)C(=O)N2C1C(=O)O (stereo not drawn),Escherichia coli,broth microdilution,Keio mutant JW0587-1,"18 h, enterobactin-related gene",12.5 µg/mL
N=C(N)NCCC[C@H](NC(=O)[C@H](Cc1c[nH]c2ccccc12)NC(=O)[C@H](CCCNC(=N)N)NC(=O)[C@H](Cc1c[nH]c2ccccc12)NC(=O)[C@H](Cc1c[nH]c2ccccc12)NC(=O)[C@H](Cc1c[nH]c2ccccc12)NC(=O)[C@H](CCCNC(=N)N)NC(=O)[C@H](Cc1c[nH]c2ccccc12)NC(=O)[C@H](CCCNC(=N)N)NC(=O)CN)C(N)=O,Candida albicans,broth microdilution,"14936, RPMI 1640-MOPS","48 h, 30 °C",4 µM
N=C(N)NCCC[C@H](NC(=O)CCCCCNC(=O)[C@H](CCCNC(=N)N)NC(=O)[C@H](CCCNC(=N)N)NC(=O)CCCCCNC(=O)[C@H](CCCNC(=N)N)NC(=O)[C@H](CCCNC(=N)N)NC(=O)CCCCCNC(=O)[C@H](CCCNC(=N)N)NC(=O)[C@H](CCCNC(=N)N)NC(=O)CCCCCNC(=O)[C@@H](N)CCCNC(=N)N)C(=O)NCCCCCC(=O)NCCC(=O)O,Escherichia coli,,ATCC 25922,,96 µM
CC(C)C[C@H](NC(=O)[C@H](CCCNC(=N)N)NC(=O)[C@H](Cc1c[nH]c2ccccc12)NC(=O)[C@H](CCCNC(=N)N)NC(=O)[C@H](Cc1c[nH]c2ccccc12)NC(=O)[C@H](Cc1c[nH]c2ccccc12)NC(=O)[C@H](Cc1c[nH]c2ccccc12)NC(=O)[C@H](CCCNC(=N)N)NC(=O)[C@H](Cc1c[nH]c2ccccc12)NC(=O)[C@H](CCCNC(=N)N)NC(=O)CN)C(N)=O,Candida tropicalis,broth microdilution,"CGMCC 2.192, RPMI 1640-MOPS","48 h, 30 °C",4 µM
CC(C)C[C@@H]1NC(=O)[C@@H](Cc2ccccc2)NC(=O)[C@H](CCN)NC(=O)[C@@H](NC(=O)[C@H](CCN)NC(=O)[C@@H](N)[C@@H](C)O)CCNC(=O)[C@H]([C@@H](C)O)NC(=O)[C@H](CCN)NC(=O)[C@H](CCN)NC1=O,Escherichia coli,"rifampicin MIC with synergist, checkerboard",BW25113 mcr-1,"concentration not given, added: rifampicin",0.75 µg/mL
CC(C)(C)OCC1NC(=O)C(C(=O)NC(C(=O)NC2C(=O)N3C2SC(C)(C)C3C(=O)O)c2ccccc2)=C1O (stereo not drawn),Escherichia coli,broth microdilution,"ATCC 35218, low-level TEM-1",added: clavulanic acid 6 µg/mL,100 µg/mL
CC(=O)N1CCN(c2ccc(OCC3COC(Cn4ccnc4)(c4ccc(Cl)cc4Cl)O3)cc2)CC1 (stereo not drawn),Candida tropicalis,broth microdilution,"CGMCC 2.192, RPMI 1640-MOPS","48 h, 30 °C",4 µM
CC1(C)SC2C(NC(=O)C(NC(=O)C3=C(O)C(Cc4ccc(F)cc4)NC3=O)c3ccccc3)C(=O)N2C1C(=O)O (stereo not drawn),Escherichia coli,broth microdilution,"isolate IU, CTX-M-14, TEM-1",no clavulanic acid,> 200 µg/mL
CC[C@H](C)[C@H](NC(=O)[C@H](CCCCN)NC(=O)[C@@H](NC(=O)[C@H](Cc1ccc(O)cc1)NC(=O)[C@H](CCCCN)NC(=O)[C@H](CCCCN)NC(=O)CNC(=O)[C@H](CCCCN)NC(=O)[C@@H](NC(=O)[C@H](C)NC(=O)[C@H](CC(C)C)NC(=O)[C@H](Cc1c[nH]c2ccccc12)NC(=O)CNC(=O)[C@@H](NC(=O)[C@H](Cc1ccccc1)NC(=O)[C@H](CCCCN)NC(=O)[C@H](CC(C)C)NC(=O)[C@H](Cc1ccccc1)NC(=O)[C@H](C)NC(=O)CNC(=O)[C@@H](N)CCSC)C(C)C)[C@@H](C)O)C(C)C)C(=O)N[C@@H](C)C(=O)N[C@@H](Cc1c[nH]c2ccccc12)C(=O)N[C@@H](CC(=O)O)C(=O)N[C@@H](Cc1c[nH]cn1)C(=O)N[C@@H](CCCCN)C(=O)NCC(=O)N[C@H](C(=O)N[C@H](C(=O)N[C@@H](CCSC)C(=O)N[C@@H](CCCCN)C(=O)N[C@@H](Cc1c[nH]c2ccccc12)C(=O)N[C@@H](CC(C)C)C(=O)N[C@@H](CC(N)=O)C(=O)N[C@@H](C)C(=O)NCC(=O)N[C@@H](CCC(N)=O)C(=O)N[C@H](C(=O)N[C@@H](Cc1ccccc1)C(=O)N[C@H](C(=O)N[C@@H](Cc1c[nH]c2ccccc12)C(=O)N[C@H](C(=O)N[C@@H](Cc1ccc(O)cc1)C(=O)N[C@@H](CCC(=O)O)C(=O)N[C@@H](CCC(N)=O)C(=O)N[C@H](C(=O)N[C@@H](CCCCN)C(=O)N[C@@H](CCCCN)C(=O)N[C@@H](CC(C)C)C(=O)N[C@@H](Cc1c[nH]c2ccccc12)C(=O)N[C@H](C(=O)O)[C@@H](C)O)[C@@H](C)CC)C(C)C)[C@@H](C)O)[C@@H](C)O)[C@@H](C)CC)[C@@H](C)O,Streptococcus agalactiae,broth microdilution,,37 °C,62.5 µg/mL
CC(C)CC1NC(=O)C(C(=O)NC(C(=O)NC2C(=O)N3C2SC(C)(C)C3C(=O)O)c2ccccc2)=C1O (stereo not drawn),Escherichia coli,broth microdilution,Keio mutant JW2142-1,,50 µg/mL
CC(C)[C@H](NC(=O)[C@H](CCCNC(=N)N)NC(=O)[C@H](Cc1c[nH]c2ccccc12)NC(=O)[C@H](CCCNC(=N)N)NC(=O)[C@H](Cc1c[nH]c2ccccc12)NC(=O)[C@H](Cc1c[nH]c2ccccc12)NC(=O)[C@H](Cc1c[nH]c2ccccc12)NC(=O)[C@H](CCCNC(=N)N)NC(=O)[C@H](Cc1c[nH]c2ccccc12)NC(=O)[C@@H](N)CCCNC(=N)N)C(N)=O,Candida albicans,broth microdilution,"17546, RPMI 1640-MOPS","48 h, 30 °C",8 µM
CC(C)C1NC(=O)C(C(=O)NC(C(=O)NC2C(=O)N3C2SC(C)(C)C3C(=O)O)c2ccccc2)=C1O (stereo not drawn),Escherichia coli,broth microdilution,"isolate IU, CTX-M-14, TEM-1",no clavulanic acid,> 200 µg/mL
CC(C)C[C@@H](NC(=O)[C@H](C)NC(=O)CNC(=O)[C@@H](NC=O)C(C)C)C(=O)N[C@@H](C)C(=O)N[C@@H](C(=O)N[C@H](C(=O)N[C@@H](C(=O)N[C@@H](Cc1c[nH]c2ccccc12)C(=O)N[C@H](CC(C)C)C(=O)N[C@@H](Cc1cccc2[nH]ccc12)C(=O)N[C@H](CC(C)C)C(=O)N[C@@H](Cc1c[nH]c2ccccc12)C(=O)N[C@H](CC(C)C)C(=O)N[C@@H](Cc1c[nH]c2ccccc12)C(=O)NCCO)C(C)C)C(C)C)C(C)C,Streptococcus agalactiae,broth microdilution,JCM 5671,,0.53 µM
CC1NC(=O)C(C(=O)NC(C(=O)NC2C(=O)N3C2SC(C)(C)C3C(=O)O)c2ccccc2)=C1O (stereo not drawn),Escherichia coli,broth microdilution,JW0790-2 fiu deletion mutant,ferric iron uptake gene,100 µg/mL
O=C(CO/N=c1\cc2n(-c3ccc(Cl)cc3)c3ccccc3nc-2cc1Nc1ccc(Cl)cc1)NCc1ccc(C(F)(F)F)cc1,Neisseria gonorrhoeae,bacterial growth,"1130991, multidrug-resistant",24 h,> 30 µM
CC[C@H](C)C[C@H](C)CCCCCCCCC(=O)N[C@H]1C[C@@H](O)[C@@H](NCCN)NC(=O)[C@@H]2[C@@H](O)CCN2C(=O)[C@H]([C@H](O)CCN)NC(=O)[C@H]([C@H](O)[C@@H](O)c2ccc(O)cc2)NC(=O)[C@@H]2C[C@@H](O)CN2C(=O)[C@H]([C@@H](C)O)NC1=O,Candida tropicalis,EUCAST broth microdilution,"clinical isolate, RPMI 1640 with MOPS","pH 7.0, 37 °C, 2% glucose",0.25 µg/mL
C=CCO/N=c1\cc2n(-c3ccc(Cl)cc3)c3ccccc3nc-2cc1Nc1ccc(Cl)cc1,Neisseria gonorrhoeae,bacterial growth,"700825, streptomycin-resistant",24 h,> 30 µM
CC1(C)SC2C(NC(=O)C(NC(=O)C3=C(O)C(Cc4ccsc4)NC3=O)c3ccccc3)C(=O)N2C1C(=O)O (stereo not drawn),Escherichia coli,broth microdilution,"isolate IU 356 A, KPC-3, VIM-1, TEM",added: clavulanic acid 6 µg/mL,> 200 µg/mL
CC[C@H](C)[C@H](NC(=O)[C@H](CCCNC(=N)N)NC(=O)[C@H](Cc1c[nH]c2ccccc12)NC(=O)[C@H](CCCNC(=N)N)NC(=O)[C@H](Cc1c[nH]c2ccccc12)NC(=O)[C@H](Cc1c[nH]c2ccccc12)NC(=O)[C@H](Cc1c[nH]c2ccccc12)NC(=O)[C@H](CCCNC(=N)N)NC(=O)[C@H](Cc1c[nH]c2ccccc12)NC(=O)[C@H](CCCNC(=N)N)NC(=O)CN)C(N)=O,Candida albicans,broth microdilution,"CGMCC 2.209, RPMI 1640-MOPS","48 h, 30 °C",8 µM
CSCC[C@H](NC(=O)[C@H](CC(C)C)NC(=O)[C@@H](NC(=O)[C@H](Cc1ccccc1)NC(=O)[C@H](CCCCN)NC(=O)[C@H](CCCNC(=N)N)NC(=O)[C@@H](NC(=O)[C@H](Cc1ccc(O)cc1)NC(=O)[C@H](CCCNC(=N)N)NC(=O)[C@@H](N)CCCNC(=N)N)C(C)C)C(C)C)C(=O)N[C@@H](CCCNC(=N)N)C(=O)O,Micrococcus luteus,,NCTC 2665,,50 µg/mL
CC[C@H](C)[C@H](NC(=O)[C@H](CCCNC(=N)N)NC(=O)[C@H](Cc1c[nH]c2ccccc12)NC(=O)[C@H](CCCNC(=N)N)NC(=O)[C@H](Cc1c[nH]c2ccccc12)NC(=O)[C@H](Cc1c[nH]c2ccccc12)NC(=O)[C@H](Cc1c[nH]c2ccccc12)NC(=O)[C@H](CCCNC(=N)N)NC(=O)[C@H](Cc1c[nH]c2ccccc12)NC(=O)[C@@H](N)CCCNC(=N)N)C(N)=O,Candida albicans,,CGMCC 2.209,no added salts,16 µM
C[C@@H](O)[C@H]1C(=O)N2C(C(=O)O)=C(SCCN=CN)C[C@H]12,Klebsiella pneumoniae,,K2,"at emergence of KPC-137, added: ceftazidime-avibactam 4/1",64 µg/mL
N=C(N)NCCC[C@H](NC(=O)[C@H](Cc1c[nH]c2ccccc12)NC(=O)[C@H](CCCNC(=N)N)NC(=O)[C@H](Cc1c[nH]c2ccccc12)NC(=O)[C@H](Cc1c[nH]c2ccccc12)NC(=O)[C@H](Cc1c[nH]c2ccccc12)NC(=O)[C@H](CCCNC(=N)N)NC(=O)[C@H](Cc1c[nH]c2ccccc12)NC(=O)[C@@H](N)CCCNC(=N)N)C(=O)N[C@@H](Cc1c[nH]c2ccccc12)C(N)=O,Candida albicans,broth microdilution,"CGMCC 2.209, RPMI 1640-MOPS","48 h, 30 °C, added: MgCl2 1 mM",16 µM
O=C(O)CNC(=O)CO/N=c1\cc2n(-c3ccc(Cl)cc3)c3ccccc3nc-2cc1Nc1ccc(Cl)cc1,Neisseria gonorrhoeae,bacterial growth,"1130991, multidrug-resistant",24 h,3.75 µM
N=C(N)NCCC[C@H](NC(=O)CN)C(=O)N[C@@H](Cc1c[nH]c2ccccc12)C(=O)N[C@@H](CCCNC(=N)N)C(=O)N[C@@H](Cc1c[nH]c2ccccc12)C(=O)N[C@@H](Cc1c[nH]c2ccccc12)C(=O)N[C@@H](Cc1c[nH]c2ccccc12)C(=O)N[C@@H](CCCNC(=N)N)C(=O)N[C@@H](Cc1c[nH]c2ccccc12)C(=O)N[C@@H](CCCNC(=N)N)C(=O)N[C@@H](Cc1ccccc1)C(N)=O,Candida albicans,broth microdilution,"CGMCC 2.209, RPMI 1640-MOPS","48 h, 30 °C, added: NH4Cl 6 µM",16 µM
CC(C)/N=c1\cc2n(-c3ccc(Cl)cc3)c3ccccc3nc-2cc1Nc1ccc(Cl)cc1,Neisseria gonorrhoeae,bacterial growth,"700825, streptomycin-resistant",24 h,0.94 µM
